Measurements collected from several papers.
Protocols differ between the studies behind these lines. Values joined by “and” are separate records of one study, mostly repeats; a detail may differ. ± gives the spread as reported.
Adenosylmethionine-8-amino-7-oxononanoate aminotransferase: Adenosylmethionine-8-amino-7-oxononanoate aminotransferase (Mycobacterium tuberculosis, UniProt P9WQ81)
Replicase polyprotein 1ab main protease: Replicase polyprotein 1ab, main protease (Human coronavirus OC43, UniProt P0C6X6)
PTPN1: Tyrosine-protein phosphatase non-receptor type 1 (PTPN1, Homo sapiens, UniProt P18031)
Gastric inhibitory polypeptide receptor: Gastric inhibitory polypeptide receptor (Mus musculus, UniProt Q0P543)
ACE2: Angiotensin-converting enzyme 2 (ACE2, Homo sapiens, UniProt Q9BYF1)
inhA: Enoyl-[acyl-carrier-protein] reductase [NADH] (inhA, Mycobacterium tuberculosis, UniProt P9WGR1)

Structure (SMILES) = CCCCCc1cc(O)c2c(c1)OC(C)(C)[C@@H]1CCC(CO)=C[C@@H]21; target = Fatty acid-binding protein, liver (FABP1, Homo sapiens, UniProt P07148); test = binding, DAUDA displacement; setting = concentration not given; how to read = relative to: no competitor; quantity = remaining fluorescence; result = 23 ± 3.8%
Structure (SMILES) = C/C=C(\N)C(=O)CCCCCCC; target = CAI-1 autoinducer sensor kinase/phosphatase CqsS (cqsS, Vibrio cholerae serotype O1, UniProt Q9KM66); test = bioluminescence, agonist; test system = Vibrio cholerae; how to read = relative to: Ea-CAI-1 at 100%; quantity = EC50; result = 109%
Structure (SMILES) = CN1C/C(=C\c2ccccc2)C2=NN(C(N)=S)[C@H](c3ccccc3)[C@@H]2C1; target = Adenosylmethionine-8-amino-7-oxononanoate aminotransferase; setting = 100 µg/mL, added: enzyme 2 µM; quantity = inhibition; result = > 60%
Structure (SMILES) = CC(C)C[C@H](NC(=O)OCc1ccccc1)C(=O)N[C@@H](C[C@@H]1CCNC1=O)C(O)S(=O)(=O)O (stereo partly drawn); target = Replicase polyprotein 1ab main protease; quantity = k2; result = 0.31 s⁻¹
Structure (SMILES) = NC1=NN=Cc2ccccc2[O][V](=[O])[O]1.c1cnc2c(c1)ccc1cccnc12; target = PTPN1; how to read = relative to: IC50 PTP1B over IC50 YopH; quantity = selectivity ratio; result = 2.7
Structure (SMILES) = COC1OC2COC(c3ccccc3)OC2C(NC(=S)SCc2ccccc2)C1O (stereo not drawn); target = Adenosylmethionine-8-amino-7-oxononanoate aminotransferase; setting = 100 µg/mL, added: enzyme 2 µM; quantity = inhibition; result = > 60%
Structure (SMILES) = CCOC(=O)C1C(OC(c2ccc(Cl)cc2)c2ccc(Cl)cc2)CC2CCC1N2C (single isomer, unassigned); target = Adenosine receptor A2a (ADORA2A, Homo sapiens, UniProt P29274); test = binding; setting = 10000 nM, added: [3H]CGS-21680; quantity = displacement; result = inactive
Structure (SMILES) = CCCCCn1cc(C(=O)c2ccc3ccccc3c2)c2ccccc21; target = Cannabinoid receptor 1 (CNR1, Homo sapiens, UniProt P21554, I267L/L193I/L359V); test = Gαi1 engagement, agonist, BRET; how to read = relative to: reference agonist at wild-type CB1; quantity = Emax; result = 149 ± 2.6%
Structure (SMILES) = CC[C@H](C)[C@H](NC(=O)[C@H](CO)NC(=O)[C@H](Cc1ccc(O)cc1)NC(=O)[C@H](CC(=O)O)NC(=O)[C@H](CO)NC(=O)[C@@H](NC(=O)[C@H](Cc1ccccc1)NC(=O)[C@@H](NC(=O)CNC(=O)[C@@H]1CCCN1C(=O)[C@H](C)NC(=O)[C@@H](N)Cc1ccc(O)cc1)[C@@H](C)O)[C@@H](C)CC)C(=O)N[C@@H](C)C(=O)N[C@@H](CCSC)C(=O)N[C@@H](CC(=O)O)C(=O)N[C@@H](CCCCN)C(=O)N[C@H](C(=O)N[C@@H](Cc1c[nH]cn1)C(=O)N[C@@H](CCC(N)=O)C(=O)N[C@@H](CCC(N)=O)C(=O)N[C@@H](CC(=O)O)C(=O)N[C@@H](Cc1ccccc1)C(=O)N[C@H](C(=O)N[C@@H](CC(N)=O)C(=O)N[C@@H](Cc1c[nH]c2ccccc12)C(=O)N[C@@H](CC(C)C)C(=O)N[C@@H](CC(C)C)C(=O)N[C@@H](C)C(=O)N[C@@H](CCC(N)=O)C(=O)N[C@@H](CCCCN)C(=O)NCC(=O)N[C@@H](CCCCN)C(=O)N[C@@H](CCCCN)C(=O)N[C@@H](CC(N)=O)C(=O)N[C@@H](CC(=O)O)C(=O)N[C@@H](Cc1c[nH]c2ccccc12)C(=O)N[C@@H](CCCCN)C(=O)N[C@@H](Cc1c[nH]cn1)C(=O)N[C@@H](CC(N)=O)C(=O)N[C@H](C(=O)N[C@H](C(=O)N[C@@H](CCC(N)=O)C(=O)O)[C@@H](C)O)[C@@H](C)CC)C(C)C)[C@@H](C)CC; target = Gastric inhibitory polypeptide receptor; test system = COS-7; quantity = Emax; result = 71 ± 8%
Structure (SMILES) = CC(C)C[C@H](NC(=O)[C@@H]1CCCN1C(=O)[C@H](Cc1c[nH]c2ccccc12)NC(=O)[C@H](Cc1ccc(O)cc1)NC(=O)[C@@H](N)CO)C(=O)N[C@@H](CC(N)=O)C(=O)N[C@@H](CC(=O)O)C(=O)N[C@@H](Cc1ccc(O)cc1)C(=O)NCC(=O)N[C@@H](Cc1ccccc1)C(=O)N[C@@H](Cc1ccc(O)cc1)C(=O)N[C@H](C(N)=O)[C@@H](C)O; target = ACE2; test = binding; setting = pH 8; quantity = koff; result = 0.16 s⁻¹
Structure (SMILES) = CC(C)c1nc2cc(O)ccc2c(=O)n1-c1ccc(C#N)cc1; target = Transient receptor potential cation channel subfamily V member 1 (TRPV1, Homo sapiens, UniProt Q8NER1, L515A); test = ion current, whole-cell patch clamp; setting = 1 µM; how to read = relative to: wild type; quantity = inhibition; result = decreased
Structure (SMILES) = Nc1ncnc2c1ncn2C1OC(CSCCC(N)C(=O)O)C(O)C1O (stereo not drawn); target = 5'-methylthioadenosine/S-adenosylhomocysteine nucleosidase (Vibrio cholerae serotype O1, UniProt Q9KPI8); test = substrate; quantity = Km; result = 24 µM
Structure (SMILES) = CC1=C[C@H]2c3c(O)cc(CCc4ccccc4)cc3OC(C)(C)[C@H]2CC1; target = Cannabinoid receptor 2 (CNR2, Homo sapiens, UniProt P34972); test = GTPγS binding, agonist, radiometric; setting = cell membranes; quantity = Emax; result = 113%
Structure (SMILES) = CCCCCCc1ccc(Oc2ccccc2C)c(O)c1; target = inhA; test = dissociation; quantity = activation energy; result = ~10 kcal/mol
Structure (SMILES) = CCC[C@H](NC(=O)[C@H](CC(C)C)NC(=O)OCc1ccccc1)C(=O)C(=O)NCc1ccccn1; target = Replicase polyprotein 1ab main protease; test = thermal shift; how to read = higher = stronger binding; quantity = ΔTm; result = 1.54 ± 0.01 °C
Structure (SMILES) = Cc1ccccc1N1C(=O)/C(=C/c2ccc(OCc3cccc(C(=O)O)c3)cc2)C(=O)NC1=S; target = PTPN1; test = phosphatase activity, inhibitor; how to read = relative to: LYP IC50 over PTPN1 IC50 inverse; quantity = selectivity ratio; result = 3 fold
Structure (SMILES) = CC[C@H](C)[C@H](NC(=O)CNC(=O)[C@@H](NC(=O)[C@@H](N)[C@@H](C)O)[C@@H](C)O)C(=O)NCC(=O)N[C@@H](Cc1ccc(O)cc1)C(=O)N[C@@H](CCC(N)=O)C(=O)N1CCC[C@H]1C(=O)N[C@@H](Cc1ccc(O)cc1)C(=O)N[C@@H](CCCNC(=N)N)C(=O)N[C@H](C(=O)N[C@H](C(N)=O)C(C)C)C(C)C; target = ACE2; test = binding; setting = pH 8; quantity = kon; result = 320 M⁻¹ s⁻¹
Structure (SMILES) = CCCCCCc1ccc(Oc2ccccc2Br)c(O)c1; target = inhA; test = inhibitor, progress curve analysis; setting = 20 °C, two-step induced-fit; quantity = kon; result = 55000 M⁻¹ s⁻¹
Structure (SMILES) = C=C(C)C1C2OC(=O)C1C1(O)CC3OC34C(=O)OC2C14C (stereo not drawn); target = Rdl (Drosophila melanogaster, UniProt P25123, T305V); test = GABA-induced current, antagonist, two-electrode voltage clamp; test system = Xenopus oocytes; setting = mutant receptor; quantity = Hill coefficient; result = 0.85 ± 0.18
Structure (SMILES) = CC(C)C[C@H](NC(=O)[C@H](CCCNC(=N)N)NC(=O)[C@H](Cc1ccccc1)NC(=O)CN)C(=O)N[C@@H](CC(N)=O)C(=O)N[C@@H](CO)C(=O)N[C@@H](C)C(=O)N[C@@H](CO)C(=O)N[C@@H](CCCNC(=N)N)C(=O)N[C@H](C(=O)N[C@@H](C)C(=O)N[C@@H](Cc1c[nH]cn1)C(=O)NCC(=O)N[C@@H](Cc1ccc(O)cc1)C(N)=O)C(C)C; target = Allatotropin-related peptide receptor 1 (Aplysia californica, UniProt A0ABM0K100); test = cAMP, agonist; how to read = relative to: compound over D2-ATRP; quantity = potency ratio; result = ~80 fold
Structure (SMILES) = Cc1cc(S(=O)(=O)N(C)CC(=O)Nc2ccn(C)c(=O)c2)c2[nH]ncc2c1; target = Dihydrolipoyl dehydrogenase (Mycobacterium tuberculosis, UniProt P9WHH9); test = ITC; setting = added: NADH; how to read = relative to: without NADH; quantity = Kd decrease; result = > 2 fold
Structure (SMILES) = C[N+](C)(C)CCOC(N)=O; target = CHRNA7/glc-2 (Gallus gallus, UniProt P22770+Q17328); test = binding; setting = 24 or 48 h, 37 °C; quantity = Hill coefficient; result = 1.7 ± 0.13
Structure (SMILES) = CC(=O)N[C@H]1[C@@H](O)[C@H](O)[C@@H](CO)O[C@H]1O; target = N-acetylmannosamine kinase (nanK, Vibrio cholerae serotype O1, UniProt Q9KR61); test = substrate; test system = Vibrio cholerae; quantity = Km; result = 71 µM and ~65 µM
Structure (SMILES) = CCCCC(=N)NCc1ccc2[nH]c3c(c2c1)CC1(O)C2Cc4ccc(O)c5c4C1(CCN2CC1CC1)C3O5 (stereo not drawn); target = Kappa-type opioid receptor (OPRK1, Homo sapiens, UniProt P41145); test = [3H]diprenorphine binding; how to read = relative to: Ki µ over Ki κ; quantity = selectivity ratio; result = ~3
Structure (SMILES) = CC1C(=NNC(=O)c2ccncc2)C(C)C(c2ccc(Br)cc2)OC1c1ccc(Br)cc1 (stereo not drawn); target = DNA gyrase subunit A/DNA gyrase subunit B (Mycobacterium tuberculosis, UniProt P9WG45+P9WG47); test = enzyme activity, inhibitor; setting = 6.25 µg/mL; quantity = inhibition; result = 50.7%
Structure (SMILES) = CNC(=O)N1CCN(c2ccc(NC(=O)Cn3c(C)c(C(=O)c4ccc(OC)cc4)c4ccccc43)cc2C(F)(F)F)CC1; target = Discoidin domain-containing receptor 2 (DDR2, Homo sapiens, UniProt Q16832); test = binding, binding competition; how to read = relative to: DDR1 over DDR2; quantity = selectivity ratio; result = ~10 fold
Structure (SMILES) = CC[C@H](C)[C@H](NC(=O)[C@H](CO)NC(=O)[C@H](Cc1ccc(O)cc1)NC(=O)[C@H](CC(=O)O)NC(=O)[C@H](CO)NC(=O)[C@@H](NC(=O)[C@H](Cc1ccccc1)NC(=O)[C@@H](NC(=O)CNC(=O)[C@H](CCC(=O)O)NC(=O)[C@H](C)NC(=O)[C@@H](N)Cc1ccc(O)cc1)[C@@H](C)O)[C@@H](C)CC)C(=O)N[C@@H](C)C(=O)N[C@@H](CCSC)C(=O)N[C@@H](CC(=O)O)C(=O)N[C@@H](CCCCN)C(=O)N[C@H](C(=O)N[C@@H](CCCNC(=N)N)C(=O)N[C@@H](CCC(N)=O)C(=O)N[C@@H](CCC(N)=O)C(=O)N[C@@H](CC(=O)O)C(=O)N[C@@H](Cc1ccccc1)C(=O)N[C@H](C(=O)N[C@@H](CC(N)=O)C(=O)N[C@@H](Cc1c[nH]c2ccccc12)C(=O)N[C@@H](CC(C)C)C(=O)N[C@@H](CC(C)C)C(=O)N[C@@H](C)C(=O)N[C@@H](CCC(N)=O)C(=O)N[C@@H](CCCNC(=N)N)C(=O)NCC(=O)N[C@@H](CCCCN)C(=O)N[C@@H](CCCCN)C(=O)N[C@@H](CO)C(=O)N[C@@H](CC(=O)O)C(=O)N[C@@H](Cc1c[nH]c2ccccc12)C(=O)N[C@@H](CCCCN)C(=O)N[C@@H](Cc1c[nH]cn1)C(=O)N[C@@H](CC(N)=O)C(=O)N[C@H](C(=O)N[C@H](C(=O)N[C@@H](CCC(N)=O)C(=O)O)[C@@H](C)O)[C@@H](C)CC)C(C)C)[C@@H](C)CC; target = Gastric inhibitory polypeptide receptor; test system = COS-7; quantity = Emax; result = 156 ± 13%

For quick reference, copied from above:
Structure (SMILES) = CC1=C[C@H]2c3c(O)cc(CCc4ccccc4)cc3OC(C)(C)[C@H]2CC1; target = Cannabinoid receptor 2 (CNR2, Homo sapiens, UniProt P34972); test = GTPγS binding, agonist, radiometric; setting = cell membranes; quantity = Emax; result = 113%
Structure (SMILES) = CCCCCCc1ccc(Oc2ccccc2C)c(O)c1; target = inhA; test = dissociation; quantity = activation energy; result = ~10 kcal/mol
Structure (SMILES) = CCC[C@H](NC(=O)[C@H](CC(C)C)NC(=O)OCc1ccccc1)C(=O)C(=O)NCc1ccccn1; target = Replicase polyprotein 1ab main protease; test = thermal shift; how to read = higher = stronger binding; quantity = ΔTm; result = 1.54 ± 0.01 °C
